Assay results gathered from unrelated publications.
Parts stem from different laboratories: compare values within a part only. Substitutions count along the parent as printed.

Sample 1 — technique: aptamer microarray, sandwich; molecule type: DNA with 2'F-ANA; medium: in vitro; tested at: 200 nM; with: Cy3 exosite-II aptamer, 400 nM; reading: higher = stronger binding; oligonucleotide: GGTTGGTGTGGTTGG
Target: Prothrombin, mature alpha-thrombin (F2, Homo sapiens, UniProt P00734)
Notes: whole 15-mer aptamer, many near background
Modification	mean fluorescence intensity
2'F-ANA at 4 5	67.2 a.u.
2'F-ANA at 1 2 5 7 8 11 12 13	77.1 a.u.
2'F-ANA at 1 2 3 6 7 10 12 13 15	88 a.u.
2'F-ANA at 1 2 4 7 8 9 10	53.1 a.u.
2'F-ANA at 3 4 7 8 9 11	753 a.u.
2'F-ANA at 1 2 4 12 15	363 a.u.
2'F-ANA at 4 9 12 13 14	85.8 a.u.
2'F-ANA at 1 3 5 6 8 10 14 15	51.2 a.u.
2'F-ANA at 1 4 5 6 10 11 12 13 14 15	49.1 a.u.
2'F-ANA at 1 5 13 15	47.1 a.u.
2'F-ANA at 1 3 7 11	300 a.u.
2'F-ANA at 1 3 4 5 6 7 10 12 13 14	47.6 a.u.
2'F-ANA at 3 5 7 8 9 11 12 14 15	64.3 a.u.
2'F-ANA at 3 8 9 10 12 14 15	432 a.u.
2'F-ANA at 1 3 4 5 6 7 10 11	45.8 a.u.
2'F-ANA at 1 2 3 6 8 10 13 15	73.3 a.u.
2'F-ANA at 1 6 7 12 13 14	318 a.u.
2'F-ANA at 1 2 3 4 6 8 9 10 11 12 13	58.9 a.u.
2'F-ANA at 1 4 5 6 8 9 11 14	49.4 a.u.
2'F-ANA at 1 2 6 9 13 15	105 a.u.
2'F-ANA at 8 9 10 13 14 15	95.7 a.u.
2'F-ANA at 3 5 6 10 11 13 14 15	49.5 a.u.
2'F-ANA at 2 3 6 7 9 10 12 15	352 a.u.
2'F-ANA at 3 11 12 14	945 a.u.
2'F-ANA at 3 8 9 12 14 15	718 a.u.

Sample 2 — target: UBE2E2 UBC core domain (UniProt Q96LR5); technique: yeast two-hybrid; medium: yeast; notes: mostly zero background; relative to: not given; reading: higher = stronger interaction
Chain of UniProt Q96LR5 (whole entry, looked up): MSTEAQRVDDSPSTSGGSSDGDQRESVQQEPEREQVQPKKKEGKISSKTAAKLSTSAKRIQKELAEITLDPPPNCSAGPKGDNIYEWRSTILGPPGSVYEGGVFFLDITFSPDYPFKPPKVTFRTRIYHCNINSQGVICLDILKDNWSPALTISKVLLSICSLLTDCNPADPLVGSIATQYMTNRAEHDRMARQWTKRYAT
B1: TRIM41 RING domain (UniProt Q8WV44); chain PVQTLQEEAVCAICLDYFTDPVSIGCGHNFCRVCVTQLWGGEDEEDRDELDREEEEEDGEEE
B2: MARCHF1 RING domain (UniProt Q8TCQ1); chain TAPRSQSRLSVCPSTQDICRICHCEGDEESPLITPCRCTGTLRFVHQSCLHQWIKSSDTRCCELCKYDFIMETKLKPLRKWE
B3: RING1 RING domain (UniProt Q06587); chain SPRSLHSELMCPICLDMLKNTMTTKECLHRFCSDCIVTALRSGNKECPTCRKKLVSKRSLR
B4: MKRN3 RING domain (UniProt Q13064); chain FAVQRGMDKVCGICMEVVYEKANPNDRRFGILSNCNHSFCIRCIRRWRSARQFENRIVKSCPQCRVTSELVIPSE
B5: RNF103 RING domain (UniProt O00237); chain WPADMLHCTECVVCLENFENGCLLMGLPCGHVFHQNCIVMWLAGGRHCCPVCRWPSYKKKQPY
B6: HLTF RING domain (UniProt Q14527); chain LILSSGSDEECAICLDSLTVPVITHCAHVFCKPCICQVIQNEQPHAKCPLCRNDIHEDNLLE
B7: ZNRF4 RING domain (UniProt Q8WWF5); chain VRTFTWHNDLCAICLDEYEEGDQLKILPCSHTYHCKCIDPWFSQAPRRSCPVCKQSVAATEDSF
B8: RNF186 RING domain (UniProt Q9NXI6); chain HSGSTECDLECLVCREPYSCPRLPKLLACQHAFCAICLKLLLCVQDNTWSITCPLCRKVTAVPGGLI
B9: BFAR RING domain (UniProt Q9NZS9); chain GPQISVSEFSCHCCYDILVNPTTLNCGHSFCRHCLALWWASSKKTECPECREKWEGFPKVS
B10: RUFY1 RING domain (UniProt Q96T51); chain QALKGHAWLKDDEATHCRQCEKEFSISRRKHHCRNCGHIFCNTCSSNELALPSYPKPVRVCDSCHTLLLQRCSSTAS
B11: MID2 RING domain (UniProt Q9UJV3); chain KMETLESELTCPICLELFEDPLLLPCAHSLCFSCAHRILVSSCSSGESIEPITAFQCPTCRYVISLNHRGL
Molecule	lacZ reporter activity
FDPPLESKYECPICLMALREAVQTPCGHRFCKACIIKSIRDAGHKCPVDNEILLENQLFP (TRAF6 RING domain (UniProt Q9Y4K3))	0
B1 (TRIM41 RING domain)	0
B2 (MARCHF1 RING domain)	0
B3 (RING1 RING domain)	0
B4 (MKRN3 RING domain)	0
B5 (RNF103 RING domain)	3230
B6 (HLTF RING domain)	0
EIKEYKARLTCPCCNTRKKDAVLTKCFHVFCFECVRGRYEARQRKCPKCNAAFGAHDFHR (RNF40 RING domain (UniProt O75150))	0
B7 (ZNRF4 RING domain)	0
B8 (RNF186 RING domain)	0
ASEEEFQFLRCQQCQAEAKCPKLLPCLHTLCSGCLEASGMQCPICQAPWPLGADTP (PML RING domain (UniProt P29590))	0
B9 (BFAR RING domain)	0
B10 (RUFY1 RING domain)	0
ASPKIFQKTKCSICNSALELPSVHFLCGHSFHQHCFESYSESDADCPTCLPENRKVMDMI (VPS11 RING domain (UniProt Q9H270))	0
B11 (MID2 RING domain)	0

Sample 3 — target: JDP2, bZIP domain (human); technique: DHFR protein complementation; medium: yeast; relative to: wild-type JUN-FOS pair; reading: higher = stronger binding
Notes: single substitutions, most at no-binding floor
Starting sequence: JUN, bZIP domain (human); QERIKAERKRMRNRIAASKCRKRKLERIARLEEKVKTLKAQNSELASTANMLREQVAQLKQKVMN; partner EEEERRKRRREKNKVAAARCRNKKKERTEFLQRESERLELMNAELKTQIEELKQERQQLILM
Substitution	binding fitness [natural log]
Q55I	0.235
I28K	0.299
E32I	0.0437
L31N	0.097
V35S	-0.0387
A46R	0.255
N42D	-0.521
A29W	0.185
L45T	-0.398
E33C	0.19
A40P	-0.871
N42G	0.263
V35A	0.0675
A40L	0.215
Q41E	0.32
S43A	0.315
A40Y	0.194
Q41T	0.235
S47G	0.315
T37L	0.326

Sample 4 — target: CCNA2, cyclin fold, Cln2 fusion (human); technique: yeast growth competition, sequencing; medium: yeast; notes: strong parent motif; relative to: not given; reading: higher = stronger binding
Starting sequence: RBL2 docking peptide (human); STTRRRLFVENDS; partner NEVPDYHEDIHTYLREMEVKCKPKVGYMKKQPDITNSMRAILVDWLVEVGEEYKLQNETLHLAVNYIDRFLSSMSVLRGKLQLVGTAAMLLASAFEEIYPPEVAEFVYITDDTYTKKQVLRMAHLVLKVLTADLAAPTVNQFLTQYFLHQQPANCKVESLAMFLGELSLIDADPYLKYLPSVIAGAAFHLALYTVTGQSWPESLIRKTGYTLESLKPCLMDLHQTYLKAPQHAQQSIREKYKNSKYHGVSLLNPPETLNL
Substitution	normalised enrichment score
STLRRRLFVENDS [T3L]	3.89
STTRRRLFVENDM [S13M]	5.56
WTTRRRLFVENDS [S1W]	4.12
STTRRRLFVETDS [N11T]	5.82
STTRRRLFQENDS [V9Q]	5.49
STTRRRLYVENDS [F8Y]	2.9
STTRRRTFVENDS [L7T]	-0.0222
STKRRRLFVENDS [T3K]	1.97
STTRRRAFVENDS [L7A]	0.437
STTRRRLIVENDS [F8I]	1.93
STTRRMLFVENDS [R6M]	3.32
STTRRRRFVENDS [L7R]	1.09
STTRARAFVENDS [R5A L7A]	-0.0829
SATRRRLFVENDS [T2A]	5.7
STTRRRLFVEEDS [N11E]	5.64
STTRRRLNVENDS [F8N]	1.78
STTRRRHFVENDS [L7H]	0.701
STTRRRLFCENDS [V9C]	6.43
STTRRRLFGENDS [V9G]	5.5
STTNRRLFVENDS [R4N]	1.18
STTGRRLFVENDS [R4G]	0.879
STTRRRLFVEADS [N11A]	5.17
STTRRRLFMENDS [V9M]	6.65
STTRKRLLVENDS [R5K F8L]	0.488
STTRRRLFVVNDS [E10V]	5.25

Sample 5 — technique: universal PBM; molecule type: double-stranded DNA, one strand shown; medium: in vitro; tested at: 600 nM; reading: higher = stronger binding
Target: Sal-like protein 4, full length isoform A (SALL4, Homo sapiens, UniProt Q9UJQ4, residues 1-1053)
Chain of UniProt Q9UJQ4 (whole entry, looked up): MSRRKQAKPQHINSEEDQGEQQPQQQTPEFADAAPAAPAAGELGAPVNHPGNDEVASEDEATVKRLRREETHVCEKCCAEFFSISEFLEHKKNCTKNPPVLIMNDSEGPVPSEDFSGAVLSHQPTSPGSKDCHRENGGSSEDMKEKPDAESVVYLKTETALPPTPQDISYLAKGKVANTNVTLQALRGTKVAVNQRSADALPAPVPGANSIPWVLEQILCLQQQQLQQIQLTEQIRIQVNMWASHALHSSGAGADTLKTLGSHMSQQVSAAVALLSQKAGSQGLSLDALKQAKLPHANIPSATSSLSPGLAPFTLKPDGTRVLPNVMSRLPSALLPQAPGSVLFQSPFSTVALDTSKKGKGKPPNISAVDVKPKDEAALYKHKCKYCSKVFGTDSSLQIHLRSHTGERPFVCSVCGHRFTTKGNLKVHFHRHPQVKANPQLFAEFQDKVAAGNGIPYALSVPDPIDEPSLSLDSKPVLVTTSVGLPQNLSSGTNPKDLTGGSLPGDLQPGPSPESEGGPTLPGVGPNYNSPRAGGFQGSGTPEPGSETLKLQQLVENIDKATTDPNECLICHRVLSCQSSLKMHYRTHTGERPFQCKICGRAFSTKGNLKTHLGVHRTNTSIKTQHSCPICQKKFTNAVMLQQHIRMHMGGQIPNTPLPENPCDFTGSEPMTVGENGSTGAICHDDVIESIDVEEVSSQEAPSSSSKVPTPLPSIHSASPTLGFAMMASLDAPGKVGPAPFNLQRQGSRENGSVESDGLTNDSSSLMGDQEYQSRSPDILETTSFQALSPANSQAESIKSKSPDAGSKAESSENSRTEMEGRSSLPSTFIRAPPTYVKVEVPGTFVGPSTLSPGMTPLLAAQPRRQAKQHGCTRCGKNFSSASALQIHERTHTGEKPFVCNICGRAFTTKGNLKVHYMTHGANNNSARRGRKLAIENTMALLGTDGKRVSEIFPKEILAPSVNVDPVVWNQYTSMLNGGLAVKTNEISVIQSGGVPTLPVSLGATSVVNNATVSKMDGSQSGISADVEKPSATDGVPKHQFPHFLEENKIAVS
Notes: 8-mer, flanks averaged, mean of replicates
Oligonucleotide	E-score
GAGAAAAA	0.17
ACGATAAC	0.102
AGGCCCCG	-0.376
CGGGGTCC	-0.413
AAAGGAGT	0.0701
AGTTCAAT	0.096
AGTTATGG	0.347
GATTGGGA	-0.0508
CTCTCAAC	-0.159
CCTCGCCG	-0.344
CCATTAAC	0.245
CTCTCTAA	-0.0821
GGCTGACA	-0.101
ATGTACAA	0.289
TAACGTAA	0.214
GGACAGAA	-0.0011
AGCAATTA	0.24
GATTAACA	0.215
CTAAAAAA	0.328
AGTTCGAA	0.0772
GAGCCGAA	-0.0998
CGCATCCG	-0.236
CTTATCGA	0.18

Sample 6 — technique: DHFR PCA, deep sequencing; medium: yeast; with: (+)-ABA 58 µM; relative to: wild-type fitted maximum; reading: higher = stronger binding
Target: ABI1, truncated, D143A, DHFR fusion (Arabidopsis thaliana)
Notes: methotrexate growth selection, single substitutions
Starting sequence: PYL1, truncated, DHFR fusion (Arabidopsis thaliana); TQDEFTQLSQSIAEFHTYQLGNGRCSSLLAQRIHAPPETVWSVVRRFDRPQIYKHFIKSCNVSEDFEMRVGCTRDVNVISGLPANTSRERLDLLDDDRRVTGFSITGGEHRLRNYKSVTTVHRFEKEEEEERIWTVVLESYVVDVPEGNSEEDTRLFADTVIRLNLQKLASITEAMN
Substitution	relative binding score
Q7V	93.8%
V137Q	12.8%
R49W	23%
G108A	0.258%
G21N	85.5%
R24A	75%
R69Q	91.1%
R113F	76.1%
E127W	80.3%
R69G	77.9%
V43F	71.5%
V136A	45.3%
F124A	87.7%
L20D	89.6%
R46E	69.9%
N77D	82.7%
E64C	78.9%
D48F	11.8%
L169K	-2.96%
E152H	76.9%
I79H	87.5%
Y115L	18.3%
E89A	-3.9%
I33D	-9.05%
Q51M	54.6%

Repeated from above (sample 5):
Oligonucleotide	E-score
CCATTAAC	0.245
CTCTCAAC	-0.159
CTTATCGA	0.18
CGCATCCG	-0.236
ACGATAAC	0.102
GGCTGACA	-0.101
CTCTCTAA	-0.0821
GAGAAAAA	0.17
CTAAAAAA	0.328
AGTTATGG	0.347
ATGTACAA	0.289
AGTTCGAA	0.0772
AAAGGAGT	0.0701
AGTTCAAT	0.096
AGGCCCCG	-0.376
